Measured values of several laboratories.
Compare with care: the assays were run in different laboratories.

Structure (SMILES)	system	setting	half-life
N#Cc1cnc2cc(OCC3CCNCC3)c(F)cc2c1Nc1cc(F)c(OCc2cccc(Cl)n2)cc1Cl	male Sprague-Dawley rat, plasma	oral, 300 mg/kg	10.2 h
C[Si](C)(C)C[C@H](CN)CC(=O)O	male Sprague-Dawley rat, plasma	oral, 100 mg/kg, single dose	2.58 h
Cn1cc(-c2cc(N3CCCS3(=O)=O)ccc2N[C@H]2CC[C@H](C)CC2)c2cc[nH]c2c1=O	Sprague-Dawley rat, plasma	intravenous, 1 mg/kg	1.09 h
CC12CC3CC(C)(C1)CC(NC(=O)Nc1ccc(C(=O)N4CCC[C@H](C(N)=O)C4)cc1F)(C3)C2	Sprague-Dawley rat, plasma	intravenous, 10 mg/kg	6.25 h
COc1ccc(COc2c(OC)ccc3c2C[C@@H](C(=O)O)N(c2nc4ccc(F)cc4o2)C3)cc1	male Sprague-Dawley rat, plasma	intravenous, 1 mg/kg	2.4 h
C[Si]1(C[C@@H](CN)CC(=O)O)CCCC1	male Sprague-Dawley rat, plasma	oral, 100 mg/kg, single dose	2.62 h
O=c1c2cc(Cl)ccc2sc2c(NCc3ccccc3)nc3ccccc3c12	male Sprague-Dawley rat, plasma	intravenous, 3 mg/kg, single dose	4.51 h
N[C@H](COc1ccccc1C(F)(F)F)c1ccccc1	rat, plasma	intravenous, 5 mg/kg	3.8 h
CC(C)(C)C(=O)Nc1ccc2[nH]c(CN3CCC(N(CCCN4CCOCC4)CC4OC(n5cnc6c(N)ncnc65)C(O)C4O)CC3)nc2c1 (stereo not drawn)	male Sprague-Dawley rat, plasma	intravenous, 20 mg/kg	1.62 h
Cc1ccc(OCC(=O)N(Cc2cccs2)c2ccn[nH]2)cc1	female Sprague-Dawley rat, plasma	oral, 100 mg/kg, single dose	2.91 h
COc1ccc(S(=O)(=O)N2CCc3ccccc3C2)cc1N1CCN(C(=O)c2ccc(F)cc2C(F)(F)F)CC1	rat, brain	intravenous, 10 mg/kg, single dose	0.47 h
COCCCN1CCc2c(Cc3ccc(Cl)cc3)[nH]c3c(OC(F)F)ccc(c23)C1=O	male Sprague-Dawley rat, blood	intravenous, 2.5 mg/kg	1.99 h
CSCOC1C(=O)C2(C)C(OCSC)CC3OCC3(OC(C)=O)C2C(OC(=O)c2ccccc2)C2(O)CC(OC(=O)C(O)C(C=C(C)C)NC(=O)OC(C)(C)C)C(C)=C1C2(C)C (stereo not drawn)	male Sprague-Dawley rat, plasma	intravenous, 1 mg/kg	8.1 h
COC(=O)c1ccc2c(c1)NC(=O)/C2=C(\Nc1ccc2c(c1)CCN2C(=O)CN1CCOCC1)c1ccccc1	Sprague-Dawley rat, plasma	oral, 10 mg/kg	4.81 h
CCOC(=O)c1cc2c(N)c(C(=O)OC)sc2nc1C	male Sprague-Dawley rat, plasma	subcutaneous, 100 mg/kg	1.38 h
COc1cc2ncnc(Oc3ccc(Nc4nccc5[nH]cc(-c6ccc(F)cc6)c(=O)c45)cc3F)c2cc1OC	male Sprague-Dawley rat, plasma	oral, 10 mg/kg	26.7 h
Cc1cccc(Cn2ncc3c4cc(F)c(CN(C)C)cc4n(C)c3c2=O)n1	rat, plasma	intravenous, 5 mg/kg	0.8 h
CC1(C)CNC(=O)c2ccccc21	rat, plasma	intravenous, 1 mg/kg, single dose	2 h

Excerpt of the above:
Structure (SMILES)	system	setting	half-life
COc1ccc(COc2c(OC)ccc3c2C[C@@H](C(=O)O)N(c2nc4ccc(F)cc4o2)C3)cc1	male Sprague-Dawley rat, plasma	intravenous, 1 mg/kg	2.4 h
C[Si]1(C[C@@H](CN)CC(=O)O)CCCC1	male Sprague-Dawley rat, plasma	oral, 100 mg/kg, single dose	2.62 h
